Assay results from different studies.
Every numbered part comes from another study and shows a few of its results, in no order.

Study 1 — technique: protein-binding microarray; form: double-stranded DNA, one strand shown; medium: in vitro; tested at: 0.8 µM; setting: whole 60-bp probe, no competitor; reading: higher = stronger binding; all sequences stand within: … GTCTTGATTCGCTTGACGCTGCTG
Target: Centromere-binding protein 1, full length, N-terminal tag (CBF1, Saccharomyces cerevisiae, UniProt P17106, residues 1-351)
UniProt P17106, sequence (whole entry, looked up): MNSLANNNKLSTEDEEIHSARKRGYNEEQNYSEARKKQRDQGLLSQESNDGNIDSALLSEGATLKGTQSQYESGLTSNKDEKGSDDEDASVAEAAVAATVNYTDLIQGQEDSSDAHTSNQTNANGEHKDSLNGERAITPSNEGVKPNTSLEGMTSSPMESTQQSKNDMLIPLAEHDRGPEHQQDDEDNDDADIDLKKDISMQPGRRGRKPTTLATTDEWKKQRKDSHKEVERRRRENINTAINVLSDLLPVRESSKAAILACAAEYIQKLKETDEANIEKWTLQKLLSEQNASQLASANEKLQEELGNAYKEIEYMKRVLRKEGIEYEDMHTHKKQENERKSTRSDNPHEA
Oligonucleotide	fluorescence intensity [a.u.]
TGTACGAAGCTATAGGTGGCGATTATAGTAGTTAGG	504
CTAAAACAGTGGTCTGATGTGATAGGGAAGTAATTC	589
CTATATACTGTTAAACATGTGAACTTTTCTGTATTC	712
CTATCGTAGATTCATCATGTTCTATACGTTTTTTTC	485
CTATCAAATGAATATCACGATTTTGGCTGTATTTTC	579

Study 2 — technique: protein binding microarray; form: double-stranded DNA, one strand shown; medium: in vitro; tested at: not given; relative to: not given; reading: higher = stronger binding
Target: Histone acetyltransferase KAT6A, winged helix 1, GST fusion (KAT6A, Homo sapiens, UniProt Q92794, residues 1-85)
Setting: 8-mer, flanks averaged, mean of 2 arrays, mostly near background
Construct (chain): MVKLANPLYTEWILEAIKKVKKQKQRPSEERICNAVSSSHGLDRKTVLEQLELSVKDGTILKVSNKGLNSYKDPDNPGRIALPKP
Oligonucleotide	E-score
AAGAGGCG	0.167
AGCGTTTC	0.0411
AACGGGGG	0.197
CAGGGATG	-0.0855
CAAACTGC	0.00485
GGGTGGCA	-0.101

Study 3 — technique: universal PBM; form: double-stranded DNA, one strand shown; medium: in vitro; tested at: not given; reading: higher = stronger binding
Target: Sal-like protein 4, full length isoform B (SALL4, Homo sapiens, UniProt Q9UJQ4-2, residues 1-616)
Setting: 8-mer, flanks averaged, mean of replicates
Residues (chain): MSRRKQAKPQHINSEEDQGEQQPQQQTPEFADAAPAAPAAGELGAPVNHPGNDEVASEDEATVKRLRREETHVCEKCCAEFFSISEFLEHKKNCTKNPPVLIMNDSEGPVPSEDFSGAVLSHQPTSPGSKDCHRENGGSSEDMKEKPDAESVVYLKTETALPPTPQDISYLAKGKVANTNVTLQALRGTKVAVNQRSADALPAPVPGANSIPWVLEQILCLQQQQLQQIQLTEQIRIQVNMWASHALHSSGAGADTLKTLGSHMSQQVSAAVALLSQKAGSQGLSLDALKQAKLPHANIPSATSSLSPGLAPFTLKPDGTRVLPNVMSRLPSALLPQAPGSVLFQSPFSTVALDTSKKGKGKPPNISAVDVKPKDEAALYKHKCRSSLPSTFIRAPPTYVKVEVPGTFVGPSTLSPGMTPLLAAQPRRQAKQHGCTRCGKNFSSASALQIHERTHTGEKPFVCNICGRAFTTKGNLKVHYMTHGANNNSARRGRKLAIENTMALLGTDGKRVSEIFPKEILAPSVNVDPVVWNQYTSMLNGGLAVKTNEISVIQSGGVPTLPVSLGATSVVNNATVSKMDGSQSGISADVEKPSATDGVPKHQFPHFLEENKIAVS
Oligonucleotide	E-score
GAGGATAA	0.0926
AAACTTTG	0.151
ATTGTTCC	0.0175
GTGTAACA	0.068
ACTTTTTA	0.245
CCTATGGC	-0.0752
AAATAAGC	0.264

Further values, each from its own experiment
Substance	target	assay	system	setting	scale	measurement	value
PhoQ, residues 284 288 289 292 302 303 SASVAL	PhoP, residues 12 14 15 18 19 VQGLL (Escherichia coli, UniProt P23836)	Sort-seq, measured: YFP reporter	E. coli	PhoQ-PhoP variant library, added: 10 µM Mg2+	relative to: high Mg2+ state, higher = stronger signaling	fold induction	14.2

Excerpt of the above (study 3):
Oligonucleotide	E-score
ATTGTTCC	0.0175
